Experimental data gathered from unrelated publications.
“And” joins repeats or separate records; there may be more than shown.

For `CN(C)CC#Cc1ccc2[nH]c3c(c2c1)-c1nc(N)ncc1CCC3`, “brain to plasma ratio” read 0.669 and 0.638 (CD-1 mice, male; intraperitoneal, 30 mg/kg, 1 h).
`CC(C)[C@@H](CS(=O)(=O)C(C)C)N1C(=O)[C@@](C)(CC(=O)O)C[C@H](c2cccc(Cl)c2)[C@H]1c1ccc(Cl)cc1` — result for “brain to plasma ratio”: 0.314 (FVB Abcb1a/b-/- Abcg2-/- mice; oral, 20 mg/kg, total AUC ratio).
Under brain uptake, `O=C(O)CCCOc1ccc([18F])cc1-c1cc(-c2ccccc2C(F)(F)F)n(-c2ccccc2)n1` is recorded as “no effect” (mice; P-glycoprotein inhibition, together with: cyclosporine A pretreatment; baseline: without cyclosporine A).
With `COc1nc(-c2cc(C)c(N[C@@H](C)c3c(F)cc(F)cc3F)nn2)ccc1-n1cnc(C)c1` the brain concentration was 4200 ng/g (C57BL/6J mice, male, brain; oral, 25 mg/kg daily for 9 days, 4 h after last dose).
For `COc1cc2c(Nc3ccc(Cl)c(Cl)c3F)ncnc2cc1OC[C@@H]1C[C@@H]2CN(C)C[C@@H]2C1`, the brain concentration was 1460 ng/g (FVB wild-type mice, both sexes, brain; intraperitoneal infusion (osmotic pump), dose not given, 48 h).
`CCOC(=O)c1c(NC(=O)CNC(C)C)sc2c1CCCCC2` gave a brain concentration of 379 ng/g (mice (male), brain; intraperitoneal, 5 mg/kg, 0.5 h).
`CCCCCN1C[C@H](O)[C@@H](O)[C@H](O)[C@@H]1CO` gave a brain concentration of 37 ng/mL (LC-MS/MS; Hexb-/- mice, brain; 30 mg/kg/day).
`COc1nc(-c2cc(C)c(N[C@@H](C)c3cc(F)cc(F)c3)nn2)ccc1-n1cnc(C)c1` has a brain concentration of 13700 ng/g (C57BL/6J mice, male, brain; oral, 50 mg/kg daily for 9 days, 4 h after last dose).
With `Cn1ncnc1[C@H]1c2n[nH]c(=O)c3cc(F)cc(c23)N[C@@H]1c1ccc(F)cc1` the brain concentration was 17.2 ng/g (FVB Mdr1a/b−/− mice, brain; oral, 0.15 mg/kg, 2 h).

For quick reference, copied from above:
`CCCCCN1C[C@H](O)[C@@H](O)[C@H](O)[C@@H]1CO` gave a brain concentration of 37 ng/mL (LC-MS/MS; Hexb-/- mice, brain; 30 mg/kg/day).
